{"data": "Results of several laboratories", "note": "Compare with care: the assays were run in different laboratories. Several values in a cell are separate wells, animals, samples, runs or records. ± marks the error that the study gave."}
{"Compound": "c1ccc2c(c1)nc(CNCC13CC4CC(CC(C4)C1)C3)n2CC1CC1", "organism": "Streptococcus pneumoniae", "test": "growth curve", "test system": "ATCC 49619, THY broth", "measurement": "bactericidal concentration", "result": "16 mg/L"}
{"Compound": "CCn1c(C)c(CC(=O)N[C@@H](Cc2ccccc2)C(=O)N(C)c2cccc(Cl)c2)c2ccccc21", "organism": "HIV-1", "test": "viral infection", "measurement": "EC50", "result": "470 ± 10 nM"}
{"Compound": "Cc1ccc2nc(C)c(C(=O)C(=O)NCc3ccccc3)n2c1", "organism": "Mycolicibacterium vaccae", "test": "microbial growth", "test system": "IMET10670", "conditions": "2 mM", "measurement": "inhibition zone", "result": "21 mm"}
{"Compound": "CCC(CO)NCCNC(CC)CO.O=C(CN1C(=O)CSC1=O)Oc1ccc(C=NNC(=O)c2ccncc2)cc1Cl", "organism": "Mycobacterium tuberculosis", "test": "two-drug checkerboard", "test system": "H37Rv", "conditions": "concentration not given, unit not given", "scale": "lower means more synergy", "measurement": "FICI", "result": 1.52}
{"Compound": "CC(C)CC(C(=O)N1CC2(CC1C#N)C(=O)Nc1ccccc12)N(C)C(=O)c1cc2c(F)cc(F)c(F)c2[nH]1 (centres unmarked)", "organism": "Human coronavirus 229E", "test": "cytopathic effect", "test system": "MRC5", "conditions": "4.686 nM", "measurement": "inhibition", "result": "90.1%"}
{"Compound": "COc1ccc(-c2nc(-c3cccc(NC(=O)Cc4ccc(F)cc4)c3)no2)cc1OC", "organism": "Mycobacterium tuberculosis", "test": "microbial growth", "measurement": "IC50", "result": "1040 nM"}
{"Compound": "Cc1ccc(NS(=O)(=O)c2c(C(=O)N3CCCCCC3)c(C)n(C)c2C)c(Cl)c1", "organism": "Human alphaherpesvirus 1", "test": "viral infection", "test system": "HaCaT", "conditions": "33.33 µM, 36 h", "scale": "baseline: untreated", "measurement": "infection", "result": "104% and 108% and 130%"}
{"Compound": "Cc1cc(C)c2cc(C(=O)NC3CCCCCC3)[nH]c2c1", "organism": "Mycobacterium tuberculosis", "test": "bacterial growth, inhibitor", "test system": "mmpL3-TetON", "measurement": "IC50", "result": "50 nM"}
{"Compound": "Clc1ccc(CC2CON=C(c3cc(Cl)nnc3Oc3cccc(C4CC4)c3)N2)c(Cl)c1 (centres unmarked)", "organism": "Botrytis cinerea", "test": "fungal growth, inhibitor", "test system": "B05.10 wild type", "conditions": "168 h", "measurement": "EC50", "result": "0.5 ± 0.1 nM"}
{"Compound": "COc1ccc2sc(Nc3nc(-c4ccccn4)cs3)nc2c1", "organism": "Mycobacterium tuberculosis", "test": "microbial growth", "measurement": "IC50", "result": "17200 nM"}
{"Compound": "CCOc1cc(C=NNC(=S)Nc2cccc(Cl)c2)ccc1OC(=O)CN1C(=O)CSC1=O.NNC(=O)c1ccncc1", "organism": "Mycobacterium tuberculosis", "test": "two-drug checkerboard", "test system": "H37Rv", "conditions": "concentration not given, unit not given", "scale": "lower means more synergy", "measurement": "FICI", "result": 1.22}
{"Compound": "Cc1ccc(N(C)C(=O)[C@H](Cc2ccccc2)NC(=O)Cc2c[nH]c3ccc(O)cc23)cc1", "organism": "HIV-1", "test": "viral infection", "measurement": "EC50", "result": "33 ± 5 nM"}
{"Compound": "CC(C)n1ncc2c(C(=O)NCC(c3cccs3)N3CCOCC3)cc(-c3ccccc3)nc21 (centres unmarked)", "organism": "Mycobacterium tuberculosis", "test": "microbial growth", "measurement": "IC50", "result": "750 nM"}
{"Compound": "CCn1c(C)c(CC(=O)N[C@@H](Cc2ccccc2)C(=O)N(C)c2ccccc2)c2ccccc21", "organism": "HIV-1", "test": "viral infection", "measurement": "EC50", "result": "260 ± 40 nM"}
{"Compound": "Cc1occc1C(=O)Nc1nc(-c2ccccn2)nc2ccsc12", "organism": "Mycobacterium tuberculosis", "test": "bacterial growth, inhibitor", "test system": "mmpL3-TetON", "measurement": "IC50", "result": "440 nM"}
{"Compound": "CCc1ccn2c(C(=O)NCc3ccc(C)cc3)c(C)nc2c1", "organism": "Mycolicibacterium vaccae", "test": "microbial growth", "test system": "IMET10670", "conditions": "2 mM", "measurement": "inhibition zone", "result": "20 mm"}
{"Compound": "CCOc1cc(/C=N/NC(=O)c2ccccn2)ccc1OC(=O)CN1C(=O)CSC1=O", "organism": "Mycobacterium tuberculosis", "test": "microbial growth, resazurin", "test system": "H37RV", "measurement": "MIC", "result": "2.26 µM"}
{"Compound": "Cc1cc(NCCc2ccccc2)nc(/N=C(\\N)Nc2ccc(Cl)cc2)n1", "organism": "Mycobacterium tuberculosis", "test": "microbial growth", "measurement": "IC50", "result": "680 nM"}
{"Compound": "CCc1ccn2c(C(=O)NCc3ccccc3)c(C)nc2c1", "organism": "Mycolicibacterium vaccae", "test": "microbial growth", "test system": "IMET10670", "conditions": "2 mM", "measurement": "inhibition zone", "result": "19 mm"}
{"Compound": "Cc1cc(Oc2nc(N3CC[C@@H](c4ccncc4)C3)ncc2F)[nH]n1", "organism": "Mycobacterium tuberculosis", "test": "OD", "test system": "H37Rv PurF CRISPRi knockdown", "conditions": "0.125 µM, together with: anhydrotetracycline low", "measurement": "normalised growth", "result": "3% and 2%"}
{"note": "Excerpt of the above:"}
{"Compound": "Cc1occc1C(=O)Nc1nc(-c2ccccn2)nc2ccsc12", "organism": "Mycobacterium tuberculosis", "test": "bacterial growth, inhibitor", "test system": "mmpL3-TetON", "measurement": "IC50", "result": "440 nM"}
{"Compound": "CCc1ccn2c(C(=O)NCc3ccc(C)cc3)c(C)nc2c1", "organism": "Mycolicibacterium vaccae", "test": "microbial growth", "test system": "IMET10670", "conditions": "2 mM", "measurement": "inhibition zone", "result": "20 mm"}
